Measurements pooled from the literature.
Lines come from different studies, so protocols differ.
CTSL: Procathepsin L (CTSL, Homo sapiens, UniProt P07711)
Sequence of UniProt P07711 (whole entry, looked up): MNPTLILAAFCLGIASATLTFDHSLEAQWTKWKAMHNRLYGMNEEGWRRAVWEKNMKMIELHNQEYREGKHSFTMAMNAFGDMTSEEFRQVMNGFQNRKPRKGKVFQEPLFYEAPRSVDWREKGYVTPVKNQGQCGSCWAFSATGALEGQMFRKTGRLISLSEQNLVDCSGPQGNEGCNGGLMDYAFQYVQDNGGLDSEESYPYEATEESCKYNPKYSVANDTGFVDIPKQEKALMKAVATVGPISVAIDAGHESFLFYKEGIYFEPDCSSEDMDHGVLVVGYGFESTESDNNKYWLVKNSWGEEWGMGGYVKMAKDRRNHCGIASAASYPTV
Sequence of UniProt P10721 (whole entry, unmodified, looked up): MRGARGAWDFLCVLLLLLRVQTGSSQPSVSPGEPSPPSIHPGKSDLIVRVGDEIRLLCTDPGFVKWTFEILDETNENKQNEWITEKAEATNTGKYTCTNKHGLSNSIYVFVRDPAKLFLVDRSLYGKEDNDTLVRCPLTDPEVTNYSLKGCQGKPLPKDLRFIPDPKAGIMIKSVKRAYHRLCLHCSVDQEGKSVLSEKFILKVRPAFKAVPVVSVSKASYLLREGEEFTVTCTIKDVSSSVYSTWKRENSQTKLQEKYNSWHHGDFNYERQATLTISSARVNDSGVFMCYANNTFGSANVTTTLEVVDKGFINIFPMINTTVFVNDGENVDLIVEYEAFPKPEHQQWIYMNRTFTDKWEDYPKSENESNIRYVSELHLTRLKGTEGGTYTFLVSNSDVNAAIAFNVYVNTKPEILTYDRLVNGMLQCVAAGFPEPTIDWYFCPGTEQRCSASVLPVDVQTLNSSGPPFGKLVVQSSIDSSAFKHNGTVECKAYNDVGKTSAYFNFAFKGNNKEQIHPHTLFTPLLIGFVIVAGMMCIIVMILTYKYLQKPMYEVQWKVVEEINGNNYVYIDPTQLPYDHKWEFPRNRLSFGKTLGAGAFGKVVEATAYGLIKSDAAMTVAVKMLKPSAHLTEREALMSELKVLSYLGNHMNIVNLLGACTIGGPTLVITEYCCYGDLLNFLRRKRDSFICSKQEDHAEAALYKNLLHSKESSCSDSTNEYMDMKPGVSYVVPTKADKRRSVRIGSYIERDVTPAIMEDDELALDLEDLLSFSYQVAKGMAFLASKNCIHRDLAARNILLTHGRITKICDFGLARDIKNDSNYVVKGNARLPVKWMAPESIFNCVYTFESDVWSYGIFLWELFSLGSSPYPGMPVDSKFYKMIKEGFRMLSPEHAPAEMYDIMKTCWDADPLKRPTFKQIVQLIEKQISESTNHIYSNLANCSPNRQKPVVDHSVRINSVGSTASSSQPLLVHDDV
Sequence of UniProt Q86UX6 (whole entry, looked up): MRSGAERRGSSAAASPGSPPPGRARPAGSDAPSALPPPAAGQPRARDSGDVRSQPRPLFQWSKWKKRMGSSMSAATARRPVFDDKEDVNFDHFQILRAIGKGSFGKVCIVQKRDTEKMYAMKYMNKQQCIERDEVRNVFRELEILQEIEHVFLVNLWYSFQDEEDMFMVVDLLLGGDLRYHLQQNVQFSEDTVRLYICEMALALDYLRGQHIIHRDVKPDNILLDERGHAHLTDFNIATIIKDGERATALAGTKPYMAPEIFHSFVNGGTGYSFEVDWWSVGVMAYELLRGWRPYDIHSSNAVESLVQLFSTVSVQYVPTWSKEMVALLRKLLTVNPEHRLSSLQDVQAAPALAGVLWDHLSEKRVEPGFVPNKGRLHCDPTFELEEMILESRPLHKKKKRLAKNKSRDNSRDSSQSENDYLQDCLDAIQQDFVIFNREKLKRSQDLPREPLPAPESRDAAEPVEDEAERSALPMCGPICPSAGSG
Sequence of UniProt Q15569 (whole entry, looked up): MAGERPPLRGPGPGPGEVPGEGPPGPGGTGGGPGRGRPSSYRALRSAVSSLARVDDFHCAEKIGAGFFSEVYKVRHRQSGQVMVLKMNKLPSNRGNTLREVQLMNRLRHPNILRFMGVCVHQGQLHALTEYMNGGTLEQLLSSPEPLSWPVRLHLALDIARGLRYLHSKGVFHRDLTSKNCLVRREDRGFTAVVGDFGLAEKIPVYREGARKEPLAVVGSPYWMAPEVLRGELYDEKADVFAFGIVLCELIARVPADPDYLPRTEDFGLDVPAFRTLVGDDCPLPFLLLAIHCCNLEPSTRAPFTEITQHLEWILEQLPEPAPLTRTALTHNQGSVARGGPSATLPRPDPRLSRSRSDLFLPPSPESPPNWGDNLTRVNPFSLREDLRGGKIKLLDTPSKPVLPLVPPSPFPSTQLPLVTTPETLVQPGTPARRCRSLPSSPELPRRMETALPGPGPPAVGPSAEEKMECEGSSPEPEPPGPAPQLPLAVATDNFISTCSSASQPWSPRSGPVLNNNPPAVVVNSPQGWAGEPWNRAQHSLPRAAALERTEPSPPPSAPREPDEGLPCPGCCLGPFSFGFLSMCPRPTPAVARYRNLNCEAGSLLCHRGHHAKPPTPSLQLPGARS
Sequence of UniProt Q99558 (whole entry, looked up): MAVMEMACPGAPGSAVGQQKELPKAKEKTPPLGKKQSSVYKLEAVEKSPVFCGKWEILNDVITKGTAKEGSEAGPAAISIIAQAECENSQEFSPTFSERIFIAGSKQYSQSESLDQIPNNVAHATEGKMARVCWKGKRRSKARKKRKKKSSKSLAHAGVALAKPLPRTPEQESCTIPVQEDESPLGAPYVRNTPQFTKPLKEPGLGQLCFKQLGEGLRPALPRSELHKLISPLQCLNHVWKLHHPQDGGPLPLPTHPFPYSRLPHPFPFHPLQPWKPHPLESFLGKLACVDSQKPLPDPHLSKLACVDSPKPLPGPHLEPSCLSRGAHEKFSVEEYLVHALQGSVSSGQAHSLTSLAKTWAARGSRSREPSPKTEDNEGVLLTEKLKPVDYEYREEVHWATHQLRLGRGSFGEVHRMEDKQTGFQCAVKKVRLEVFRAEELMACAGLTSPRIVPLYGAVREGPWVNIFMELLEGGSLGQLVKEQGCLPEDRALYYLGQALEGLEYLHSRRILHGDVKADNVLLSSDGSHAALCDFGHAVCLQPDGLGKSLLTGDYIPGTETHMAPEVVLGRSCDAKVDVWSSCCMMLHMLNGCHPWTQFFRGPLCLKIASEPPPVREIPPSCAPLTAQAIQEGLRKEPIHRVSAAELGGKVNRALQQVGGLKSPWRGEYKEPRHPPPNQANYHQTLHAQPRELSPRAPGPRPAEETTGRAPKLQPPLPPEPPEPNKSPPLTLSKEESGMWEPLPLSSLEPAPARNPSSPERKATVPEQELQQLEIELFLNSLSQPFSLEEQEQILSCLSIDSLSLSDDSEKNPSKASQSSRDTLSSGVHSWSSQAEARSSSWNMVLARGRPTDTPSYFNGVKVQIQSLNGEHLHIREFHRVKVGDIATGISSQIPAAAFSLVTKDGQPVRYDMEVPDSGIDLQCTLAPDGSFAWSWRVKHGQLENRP
Sequence of UniProt Q00535 (whole entry, looked up): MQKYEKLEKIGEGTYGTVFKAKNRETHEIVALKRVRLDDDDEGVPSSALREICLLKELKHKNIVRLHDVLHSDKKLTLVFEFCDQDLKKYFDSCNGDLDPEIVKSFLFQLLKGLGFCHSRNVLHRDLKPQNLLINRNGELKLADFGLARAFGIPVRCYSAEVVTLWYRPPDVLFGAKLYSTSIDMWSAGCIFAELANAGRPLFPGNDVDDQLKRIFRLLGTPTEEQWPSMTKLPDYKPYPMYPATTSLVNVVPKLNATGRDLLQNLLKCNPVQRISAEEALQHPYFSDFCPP
Sequence of UniProt P61075 (whole entry, looked up): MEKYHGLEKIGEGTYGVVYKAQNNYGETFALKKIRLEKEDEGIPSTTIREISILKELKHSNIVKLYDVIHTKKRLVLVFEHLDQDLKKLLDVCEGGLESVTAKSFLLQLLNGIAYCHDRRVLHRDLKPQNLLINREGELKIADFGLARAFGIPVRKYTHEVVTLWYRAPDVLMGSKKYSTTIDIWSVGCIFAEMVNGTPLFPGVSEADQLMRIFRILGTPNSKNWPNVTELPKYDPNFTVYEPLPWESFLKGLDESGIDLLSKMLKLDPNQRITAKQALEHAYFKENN
Sequence of UniProt P35462 (whole entry, looked up): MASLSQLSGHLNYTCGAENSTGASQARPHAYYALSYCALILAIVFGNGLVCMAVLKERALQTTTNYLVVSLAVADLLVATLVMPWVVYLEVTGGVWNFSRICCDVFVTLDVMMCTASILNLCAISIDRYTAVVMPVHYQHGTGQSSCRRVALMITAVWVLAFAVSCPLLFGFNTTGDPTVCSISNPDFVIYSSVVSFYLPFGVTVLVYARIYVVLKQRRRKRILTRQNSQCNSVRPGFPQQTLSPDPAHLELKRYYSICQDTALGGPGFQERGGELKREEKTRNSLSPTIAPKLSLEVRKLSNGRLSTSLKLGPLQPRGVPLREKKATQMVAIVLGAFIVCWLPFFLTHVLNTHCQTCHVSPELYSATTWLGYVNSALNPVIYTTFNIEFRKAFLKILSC
Sequence of UniProt Q9Y6M4 (whole entry, looked up): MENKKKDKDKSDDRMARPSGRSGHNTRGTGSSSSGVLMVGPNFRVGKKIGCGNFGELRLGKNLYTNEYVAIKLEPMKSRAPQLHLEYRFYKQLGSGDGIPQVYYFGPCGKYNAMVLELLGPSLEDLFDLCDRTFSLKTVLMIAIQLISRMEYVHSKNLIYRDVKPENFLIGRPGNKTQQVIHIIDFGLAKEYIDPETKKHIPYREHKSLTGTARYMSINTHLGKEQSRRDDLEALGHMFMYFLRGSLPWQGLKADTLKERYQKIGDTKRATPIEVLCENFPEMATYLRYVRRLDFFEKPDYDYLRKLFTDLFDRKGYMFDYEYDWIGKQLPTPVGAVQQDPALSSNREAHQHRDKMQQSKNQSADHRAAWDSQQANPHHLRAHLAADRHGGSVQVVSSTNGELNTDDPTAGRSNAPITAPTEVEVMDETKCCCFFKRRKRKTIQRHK

Structure (SMILES)	tested on	assay	system	setting	quantity	result
Nc1ncnc2occ(-c3ccc(NC(=O)Nc4cc(C(F)(F)F)ccc4F)cc3)c12	KIT (Homo sapiens, UniProt P10721, V559D)	cell-free assay, inhibitor		20 µM	remaining signal	0.1%
Cc1cc(O)c2c(c1)Cc1cc(O)cc(O)c1C2=O	CTSL	enzyme activity, inhibitor		100 µM	remaining activity	23.3%
CC1CCCN1c1nccc(-c2cnn3ncccc23)n1 (centres unmarked)	CRK2 (Plasmodium falciparum, UniProt P61075)	cell-free assay		1 µM	remaining signal	100%
CC[C@H](C)[C@H](NC(=O)[C@H](CCC(N)=O)NC(=O)[C@@H](NC(=O)[C@H](CCSC)NC(=O)[C@H](CCCCN)NC(=O)[C@H](CO)NC(=O)[C@@H](NC(=O)[C@H](CCSC)NC(=O)[C@H](CC(C)C)NC(=O)[C@H](CC(N)=O)NC(=O)[C@@H](NC(=O)[C@@H](NC(=O)[C@H](CO)NC(=O)[C@H](CC(C)C)NC(=O)[C@H](C)NC(=O)[C@H](CCCNC(=N)N)NC(=O)[C@H](CCC(=O)O)NC(=O)[C@H](Cc1ccc(O)cc1)NC(=O)[C@H](Cc1ccccc1)NC(=O)[C@H](C)NC(=O)[C@H](CC(N)=O)NC(=O)[C@@H](N)CCCCN)[C@@H](C)CC)[C@@H](C)CC)[C@@H](C)O)C(C)C)C(=O)N[C@@H](CC(N)=O)C(=O)N[C@H](C(=O)O)C(C)C	Cyclin-dependent kinase 5, with p25 (CDK5, Homo sapiens, UniProt Q00535)	enzyme activity, inhibitor, radiometric		1 µM, 20 min	remaining activity	102%
Oc1ccc(C2COc3cc(O)ccc3C2)cc1 (centres unmarked)	CTSL	enzyme activity, inhibitor		100 µM	remaining activity	112%
O=S(=O)(Nc1nccs1)c1ccc(N=NN(O)c2ccccc2)cc1		ABTS scavenging		240 µg/mL	inhibition	89.1%
CNc1ncc2c(/C=C/C(=O)N3CCC(OC)CC3)nn(Cc3cccc(C(F)(F)F)c3)c2n1	PKN2 (Homo sapiens, UniProt Q16513)	enzyme activity, inhibitor, radiometric		1 µM	remaining activity	99%
Cc1cc([C@@H](C)Nc2ccccc2C(=O)O)c2nc(N3CCC(F)(F)CC3)c(C#N)c(=O)n2c1	COQ8A (Homo sapiens, UniProt Q8NI60)	binding, competition with immobilised ligand		1 µM	remaining binding	100%
FC(F)(F)Oc1cccc(-c2cnc3ccc(-c4ccncc4)nn23)c1	TESK1 (Homo sapiens, UniProt Q15569)	enzyme activity, inhibitor, radiometric		1 µM	activity vs control	24%
CN(Cc1ccc(C2(C(F)(F)F)CC2)cc1)Cc1cccc2ccccc12	Trichophyton rubrum	microbial growth, disc diffusion	ATCC28188	0.00025 µg/mL, 6 days	inhibition zone	0 mm
C=CC(=O)N1CCC(COCC(=O)N2CCN(c3nc(-c4cnc(N)nc4C(F)F)nc(N4CCOC[C@@H]4C)n3)CC2)CC1	STK32C (Homo sapiens, UniProt Q86UX6)	binding, competition with immobilised ligand		1 µM	remaining binding	100%
CCCCC(=O)Nc1ccc(-c2ccc3ncn(CCC)c(=O)c3c2)cn1	MAP3K14 (Homo sapiens, UniProt Q99558)	binding, competition with immobilised ligand		0.5 µM	remaining binding	100%
O=c1nc(N2CCN(CC3CCCCC3)CC2)sc2c([N+](=O)[O-])cc(C(F)(F)F)cc12			CD-1 mouse, lung	oral, 100 mg/kg, 1 h	concentration	383 ng/mL
CC(C)CCC[C@@H](C)[C@H]1CC[C@H]2[C@@H]3CC=C4C[C@@H](O)CC[C@]4(C)[C@H]3CC[C@]12C	USP51 (Homo sapiens, UniProt Q70EK9)	enzyme activity, inhibitor		5 µM	inhibition	0%
COc1cccc(-c2cc(C(C)=O)n3ccccc23)c1	BRD9 (Homo sapiens, UniProt Q9H8M2)	thermal stability, DSF		200 µM	ΔTm	6 °C
CSc1ccc(NS(=O)(=O)c2c(C)[nH]c(C)c2C(=O)N2CCC(F)(F)C2)cc1Cl	DRD3 (Homo sapiens, UniProt P35462)	β-arrestin recruitment, agonist		90 min	Emax	93%
C1=C/COCc2cc(ccc2OCCN2CCCC2)Nc2nccc(n2)-c2cccc(c2)COC/1	EGFR (Homo sapiens, UniProt P00533, del746-750)	binding		0.1 µM	remaining binding	71%
COc1cc(-c2cncc3c2CN(C)Cc2cc(N4CCNCC4)ccc2-3)cc(OC)c1OC	CSNK1G3 (Homo sapiens, UniProt Q9Y6M4)	enzyme activity, inhibitor		1 µM	remaining activity	104%
CCN(O)N=Nc1ccc(S(=O)(=O)Nc2onc(C)c2C)cc1		ABTS scavenging		300 µg/mL	inhibition	57.3%
CC(=O)CCc1ccccc1	CTSL	enzyme activity, inhibitor		100 µM	remaining activity	95.4%

Excerpt of the above:
Structure (SMILES)	tested on	assay	system	setting	quantity	result
COc1cc(-c2cncc3c2CN(C)Cc2cc(N4CCNCC4)ccc2-3)cc(OC)c1OC	CSNK1G3 (Homo sapiens, UniProt Q9Y6M4)	enzyme activity, inhibitor		1 µM	remaining activity	104%
Oc1ccc(C2COc3cc(O)ccc3C2)cc1 (centres unmarked)	CTSL	enzyme activity, inhibitor		100 µM	remaining activity	112%
